Measurements gathered from unrelated publications.
A part holds a random share of what one study measured. Changes are numbered by the printed parent chain.
UniProt P50750, sequence (whole entry, looked up): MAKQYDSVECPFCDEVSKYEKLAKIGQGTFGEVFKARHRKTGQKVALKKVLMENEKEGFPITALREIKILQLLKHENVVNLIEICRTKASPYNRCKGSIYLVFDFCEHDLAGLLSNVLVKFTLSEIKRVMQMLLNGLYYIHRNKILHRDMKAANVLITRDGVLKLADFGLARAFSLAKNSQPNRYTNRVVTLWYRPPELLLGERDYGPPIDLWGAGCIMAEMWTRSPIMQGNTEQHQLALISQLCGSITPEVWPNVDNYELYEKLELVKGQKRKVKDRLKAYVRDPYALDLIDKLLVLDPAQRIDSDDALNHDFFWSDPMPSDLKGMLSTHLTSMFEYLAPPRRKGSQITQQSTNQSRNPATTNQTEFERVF
UniProt Q13464, sequence (whole entry, looked up): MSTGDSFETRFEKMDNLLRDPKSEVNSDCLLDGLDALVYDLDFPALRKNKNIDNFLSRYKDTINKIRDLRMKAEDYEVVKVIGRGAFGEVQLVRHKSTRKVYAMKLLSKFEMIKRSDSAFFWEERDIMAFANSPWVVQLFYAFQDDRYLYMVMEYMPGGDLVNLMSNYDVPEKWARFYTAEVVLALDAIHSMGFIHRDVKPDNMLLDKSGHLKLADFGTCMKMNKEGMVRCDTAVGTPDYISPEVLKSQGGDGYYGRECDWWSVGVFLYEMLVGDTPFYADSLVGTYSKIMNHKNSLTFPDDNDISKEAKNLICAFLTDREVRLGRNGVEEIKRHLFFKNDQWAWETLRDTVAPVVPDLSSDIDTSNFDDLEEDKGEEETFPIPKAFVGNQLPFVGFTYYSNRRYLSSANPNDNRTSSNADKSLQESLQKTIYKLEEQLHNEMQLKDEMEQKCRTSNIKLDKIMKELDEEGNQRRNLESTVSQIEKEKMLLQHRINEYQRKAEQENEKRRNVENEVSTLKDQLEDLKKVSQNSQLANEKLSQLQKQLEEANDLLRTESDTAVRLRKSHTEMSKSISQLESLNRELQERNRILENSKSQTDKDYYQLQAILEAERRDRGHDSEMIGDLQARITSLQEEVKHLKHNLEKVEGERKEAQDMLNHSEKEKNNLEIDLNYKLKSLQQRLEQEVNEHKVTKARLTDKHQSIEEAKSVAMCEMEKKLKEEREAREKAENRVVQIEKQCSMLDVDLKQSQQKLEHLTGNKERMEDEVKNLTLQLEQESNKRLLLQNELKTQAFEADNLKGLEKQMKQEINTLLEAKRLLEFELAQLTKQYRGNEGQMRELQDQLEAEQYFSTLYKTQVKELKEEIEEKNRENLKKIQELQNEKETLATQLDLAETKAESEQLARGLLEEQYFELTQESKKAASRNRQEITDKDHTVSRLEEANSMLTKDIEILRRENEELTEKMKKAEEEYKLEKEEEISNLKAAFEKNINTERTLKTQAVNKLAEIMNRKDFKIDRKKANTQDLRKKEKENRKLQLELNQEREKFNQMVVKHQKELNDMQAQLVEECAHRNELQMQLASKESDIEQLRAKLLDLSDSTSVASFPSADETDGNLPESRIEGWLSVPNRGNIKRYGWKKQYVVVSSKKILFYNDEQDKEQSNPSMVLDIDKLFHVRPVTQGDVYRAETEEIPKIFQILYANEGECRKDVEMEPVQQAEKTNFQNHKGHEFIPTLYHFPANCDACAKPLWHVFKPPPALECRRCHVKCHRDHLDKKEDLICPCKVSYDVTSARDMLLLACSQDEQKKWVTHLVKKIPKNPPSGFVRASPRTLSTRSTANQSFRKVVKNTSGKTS
UniProt Q9HAZ1, sequence (whole entry, looked up): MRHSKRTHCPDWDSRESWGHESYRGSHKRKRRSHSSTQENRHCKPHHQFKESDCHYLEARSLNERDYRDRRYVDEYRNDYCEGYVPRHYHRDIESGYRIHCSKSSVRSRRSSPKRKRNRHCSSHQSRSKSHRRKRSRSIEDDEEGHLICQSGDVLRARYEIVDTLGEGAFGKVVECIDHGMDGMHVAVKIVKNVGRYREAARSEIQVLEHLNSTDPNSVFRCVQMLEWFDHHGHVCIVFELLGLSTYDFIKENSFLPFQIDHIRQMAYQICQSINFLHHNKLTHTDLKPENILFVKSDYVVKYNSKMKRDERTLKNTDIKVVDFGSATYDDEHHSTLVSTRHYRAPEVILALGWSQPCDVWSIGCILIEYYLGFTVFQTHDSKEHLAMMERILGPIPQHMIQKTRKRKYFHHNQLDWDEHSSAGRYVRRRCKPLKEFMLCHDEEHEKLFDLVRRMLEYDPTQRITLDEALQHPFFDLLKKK
UniProt P9WI81, sequence (whole entry, looked up): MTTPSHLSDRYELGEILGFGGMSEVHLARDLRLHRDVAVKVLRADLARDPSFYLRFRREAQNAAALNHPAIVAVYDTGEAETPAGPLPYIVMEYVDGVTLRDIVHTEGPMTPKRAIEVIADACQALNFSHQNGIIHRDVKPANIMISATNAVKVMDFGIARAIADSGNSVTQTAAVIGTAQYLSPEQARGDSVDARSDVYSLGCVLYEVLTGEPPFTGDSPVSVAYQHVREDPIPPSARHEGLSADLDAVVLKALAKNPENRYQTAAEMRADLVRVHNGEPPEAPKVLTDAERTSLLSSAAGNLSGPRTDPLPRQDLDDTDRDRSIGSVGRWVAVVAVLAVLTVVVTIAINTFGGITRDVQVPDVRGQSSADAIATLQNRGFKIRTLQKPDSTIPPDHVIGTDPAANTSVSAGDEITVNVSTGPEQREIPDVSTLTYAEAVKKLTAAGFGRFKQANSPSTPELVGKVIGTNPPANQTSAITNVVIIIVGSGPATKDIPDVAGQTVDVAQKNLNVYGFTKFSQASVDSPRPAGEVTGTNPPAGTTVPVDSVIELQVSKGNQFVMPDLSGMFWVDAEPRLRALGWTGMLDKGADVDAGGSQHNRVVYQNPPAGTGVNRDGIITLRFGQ
UniProt O75914, sequence (whole entry, looked up): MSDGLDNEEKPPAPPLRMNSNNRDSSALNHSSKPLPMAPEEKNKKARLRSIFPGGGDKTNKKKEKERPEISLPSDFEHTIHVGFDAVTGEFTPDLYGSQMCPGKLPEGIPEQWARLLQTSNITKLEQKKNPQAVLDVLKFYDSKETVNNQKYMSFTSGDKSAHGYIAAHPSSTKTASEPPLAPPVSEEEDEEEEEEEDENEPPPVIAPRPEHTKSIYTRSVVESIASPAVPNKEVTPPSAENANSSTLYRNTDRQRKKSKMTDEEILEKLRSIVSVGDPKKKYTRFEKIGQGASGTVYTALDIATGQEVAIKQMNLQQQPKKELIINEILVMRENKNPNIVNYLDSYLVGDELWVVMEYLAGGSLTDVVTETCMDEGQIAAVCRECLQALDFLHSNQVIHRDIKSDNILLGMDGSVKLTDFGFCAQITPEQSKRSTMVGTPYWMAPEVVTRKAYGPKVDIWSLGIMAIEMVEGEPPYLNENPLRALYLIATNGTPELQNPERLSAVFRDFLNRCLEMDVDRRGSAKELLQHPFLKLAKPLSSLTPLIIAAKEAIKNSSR
UniProt Q96L34, sequence (whole entry, looked up): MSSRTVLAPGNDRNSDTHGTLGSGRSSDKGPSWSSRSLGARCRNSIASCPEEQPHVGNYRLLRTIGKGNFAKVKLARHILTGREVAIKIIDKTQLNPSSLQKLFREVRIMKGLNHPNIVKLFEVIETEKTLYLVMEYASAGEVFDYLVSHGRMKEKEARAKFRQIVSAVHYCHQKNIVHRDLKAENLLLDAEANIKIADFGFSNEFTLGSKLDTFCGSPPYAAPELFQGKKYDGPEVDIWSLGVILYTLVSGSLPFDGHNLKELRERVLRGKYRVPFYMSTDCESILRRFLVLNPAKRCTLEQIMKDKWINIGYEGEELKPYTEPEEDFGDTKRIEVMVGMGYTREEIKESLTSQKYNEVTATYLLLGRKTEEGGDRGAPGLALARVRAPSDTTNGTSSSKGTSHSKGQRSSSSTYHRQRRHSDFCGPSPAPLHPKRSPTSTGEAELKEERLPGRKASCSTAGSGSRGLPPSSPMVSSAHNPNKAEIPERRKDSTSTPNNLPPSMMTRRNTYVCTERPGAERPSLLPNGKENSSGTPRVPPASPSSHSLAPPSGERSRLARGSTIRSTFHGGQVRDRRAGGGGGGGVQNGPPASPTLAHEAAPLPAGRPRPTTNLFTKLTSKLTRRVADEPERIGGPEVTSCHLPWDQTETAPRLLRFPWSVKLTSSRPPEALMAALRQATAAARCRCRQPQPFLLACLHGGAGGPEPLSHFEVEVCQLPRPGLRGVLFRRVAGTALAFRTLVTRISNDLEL
UniProt P31751, sequence (whole entry, looked up): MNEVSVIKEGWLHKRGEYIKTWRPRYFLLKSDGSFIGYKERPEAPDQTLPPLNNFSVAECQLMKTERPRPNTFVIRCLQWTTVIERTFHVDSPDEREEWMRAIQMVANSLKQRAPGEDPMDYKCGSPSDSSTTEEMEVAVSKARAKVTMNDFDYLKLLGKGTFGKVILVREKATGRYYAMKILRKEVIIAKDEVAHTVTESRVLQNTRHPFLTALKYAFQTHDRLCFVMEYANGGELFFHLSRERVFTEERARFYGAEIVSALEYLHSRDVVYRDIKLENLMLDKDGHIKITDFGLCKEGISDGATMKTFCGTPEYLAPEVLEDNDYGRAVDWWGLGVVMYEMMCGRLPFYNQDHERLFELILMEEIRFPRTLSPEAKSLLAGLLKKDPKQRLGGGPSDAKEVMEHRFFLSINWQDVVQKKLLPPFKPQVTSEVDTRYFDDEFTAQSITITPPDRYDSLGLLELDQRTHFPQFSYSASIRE
UniProt Q6P2M8, sequence (whole entry, looked up): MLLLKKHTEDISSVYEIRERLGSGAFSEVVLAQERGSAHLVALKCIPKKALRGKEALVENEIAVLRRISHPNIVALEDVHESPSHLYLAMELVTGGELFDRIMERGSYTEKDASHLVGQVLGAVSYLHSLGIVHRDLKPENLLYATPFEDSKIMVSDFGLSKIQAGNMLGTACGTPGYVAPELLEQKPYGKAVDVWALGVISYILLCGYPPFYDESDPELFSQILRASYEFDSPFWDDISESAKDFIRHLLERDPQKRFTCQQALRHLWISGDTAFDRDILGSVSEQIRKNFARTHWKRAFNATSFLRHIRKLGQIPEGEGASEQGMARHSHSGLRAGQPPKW

Study 1
Target: CCNB3, cyclin fold, Cln2 fusion (human)
Method: yeast growth competition, sequencing
Sample: yeast
Notes: strong parent motif
Reference: not given
Reading: higher = stronger binding
Quantity: normalised enrichment score
Parent: viral docking peptide; KGVKRKLFAEDSS
L7W: -0.237
A9E: 2.95
V3P: 2.08
E10R: 0.806
K4Y: 0.251
V3K: -0.219
F8N: -0.149
K6D: 0.323

Study 2
Structure (SMILES): COC[C@H]1OC(=O)c2coc3c2[C@@]1(C)C1=C(C3=O)[C@@H]2CCC(=O)[C@@]2(C)C[C@H]1OC(C)=O
Effect on: enzyme activity
Mode: inhibitor
Tested at: 0.5 µM
Reference: control
Quantity: remaining activity
PAK3 (Homo sapiens, UniProt O75914): 91.4%
ROCK1 (Homo sapiens, UniProt Q13464): 90.7%
MARK4 (Homo sapiens, UniProt Q96L34): 102%
MET (Homo sapiens, UniProt P08581): 100%
AKT2 (Homo sapiens, UniProt P31751): 94.2%
Cyclin-dependent kinase 1, with cyclin A (CDK1, Homo sapiens, UniProt P06493): 97%
CLK4 (Homo sapiens, UniProt Q9HAZ1): 85.4%
MAPK11 (Homo sapiens, UniProt Q15759): 91.6%
PNCK (Homo sapiens, UniProt Q6P2M8): 98.2%
PRKG2 (Homo sapiens, UniProt Q13237): 101%
MINK1 (Homo sapiens, UniProt Q8N4C8): 91.2%
RPS6KA4 (Homo sapiens, UniProt O75676): 96.7%
Cyclin-dependent kinase 9, with cyclin K (CDK9, Homo sapiens, UniProt P50750): 107%
MAP2K1 (Homo sapiens, UniProt Q02750): 97.3%

Single results of other studies
CC(C)=CCOc1c2occc2cc2ccc(=O)oc12  viability (HaCaT; 100 µM, 18 h): 54.9%
CO[C@@H]1[C@H](N(C)C(=O)c2ccccc2)C[C@H]2O[C@]1(C)n1c3ccccc3c3c4c(c5c6ccccc6n2c5c31)C(=O)NC4  inhibition (pknB (Mycobacterium tuberculosis, UniProt P9WI81); enzyme activity, inhibitor; 1 µM): 0%
CC(=O)c1cccc(NC=C2C(=O)NC(=O)N(c3ccccc3)C2=O)c1  inhibition (His6 tag; AlphaScreen counter screen; concentration not given): -3.95%
C[C@@H]1C[C@@H]([C@H](O)CC2CC(=O)NC(=O)C2)C(=O)[C@@H](C)C1  viability (HaCaT; 100 µM, 18 h): 89.1%
SCFD1 (Homo sapiens, UniProt Q8WVM8)  interaction screen (STX18 (Homo sapiens, UniProt Q9P2W9); cross-linking MS; hits only): cross-linked
O=C1NC(=O)N(c2ccc(F)cc2)C(=O)C1=CNc1ccc(F)cc1  inhibition (His6 tag; AlphaScreen counter screen; concentration not given): 3.4%

Excerpt of the above (study 2):
ROCK1 (Homo sapiens, UniProt Q13464): 90.7%
